Experimental data pooled from the literature.
Parts stem from different laboratories: compare values within a part only. Positions count from the first letter of the parent shown.

Set 1
Target: ABI1, truncated, D143A, DHFR fusion (Arabidopsis thaliana)
Technique: DHFR PCA, deep sequencing
Medium: yeast
Setting: methotrexate growth selection, single substitutions
With: (+)-ABA 0 µM
Reference: wild-type fitted maximum
Direction: higher = stronger binding
Starting sequence: PYL1, truncated, DHFR fusion (Arabidopsis thaliana); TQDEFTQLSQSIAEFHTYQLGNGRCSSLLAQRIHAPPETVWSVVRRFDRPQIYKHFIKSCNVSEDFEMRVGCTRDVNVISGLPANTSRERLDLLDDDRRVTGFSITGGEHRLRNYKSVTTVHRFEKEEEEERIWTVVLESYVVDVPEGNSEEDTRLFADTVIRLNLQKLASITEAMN; partner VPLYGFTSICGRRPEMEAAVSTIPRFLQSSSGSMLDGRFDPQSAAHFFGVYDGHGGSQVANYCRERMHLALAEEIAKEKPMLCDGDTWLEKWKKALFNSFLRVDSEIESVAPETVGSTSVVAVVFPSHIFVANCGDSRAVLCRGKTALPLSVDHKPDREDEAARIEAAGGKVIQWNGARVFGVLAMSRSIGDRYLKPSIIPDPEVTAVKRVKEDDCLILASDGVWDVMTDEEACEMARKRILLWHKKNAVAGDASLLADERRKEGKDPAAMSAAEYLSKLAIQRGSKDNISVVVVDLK
Variant	relative binding score
A30S	24.1%
A158T	1.77%
F103L	0.759%
T119K	1.56%
R74G	3.78%

Set 2
Target: CCNB1, cyclin fold, Cln2 fusion (human)
Technique: yeast growth competition, sequencing
Medium: yeast
Setting: weak parent motif
Reference: not given
Direction: higher = stronger binding
Starting sequence: CDC25A docking peptide (human); PPHRRRLLFACSP
Variant	normalised enrichment score
H3L	0.755
P2L	0.374
L8G	0.48
P13S	0.573

Set 3
Target: Interferon regulatory factor 7, full length, phosphomimetic (IRF7, Homo sapiens, UniProt Q92985, residues 1-503, S101K/S471D/S472D/S475D/S476D/S477D/S483D/S484D/S487D)
Technique: protein-binding microarray
Form: double-stranded DNA, one strand shown
Medium: in vitro
Tested at: 250 nM
Setting: 60-bp whole probe
With: salmon DNA 0.4 mg/ml
Reference: random background probes
Direction: higher = stronger binding
All sequences stand within: GCCTAGCAC … GTCTTGATTCGCTTGACGCTGCTG
Residues (chain): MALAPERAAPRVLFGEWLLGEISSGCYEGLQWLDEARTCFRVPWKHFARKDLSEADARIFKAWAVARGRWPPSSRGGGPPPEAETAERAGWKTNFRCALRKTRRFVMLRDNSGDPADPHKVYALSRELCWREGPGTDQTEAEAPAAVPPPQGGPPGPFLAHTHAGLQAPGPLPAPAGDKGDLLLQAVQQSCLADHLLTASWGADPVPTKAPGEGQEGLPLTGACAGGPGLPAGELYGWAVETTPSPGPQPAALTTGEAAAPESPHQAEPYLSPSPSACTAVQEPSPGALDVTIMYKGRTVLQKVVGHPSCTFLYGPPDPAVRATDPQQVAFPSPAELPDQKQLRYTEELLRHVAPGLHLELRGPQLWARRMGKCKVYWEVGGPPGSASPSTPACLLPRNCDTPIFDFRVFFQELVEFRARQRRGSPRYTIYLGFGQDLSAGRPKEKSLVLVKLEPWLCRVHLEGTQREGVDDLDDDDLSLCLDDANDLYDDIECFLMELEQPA
Oligonucleotide	log fluorescence [z-score]
CTGACATGTAAATGTGACATGTGCTAG	-0.0672
GACGAACTGAGTATCGATACGTGCTAG	0.428
CTAGGTATCGGTCTCGGTTAGTGCTAG	2.46
ACACTCTTCTTTTGCTAATTGTGCTAG	1.08
GACGATATCGGGTTTCGAGAGGTGCTA	1.46
TCATTTATGGTTTTTTTACTGTGCTAG	0.692
TCAAGTTGTACTTTCTAACTGTGCTAG	0.234

Set 4
Substance: PhoQ, residues 284 288 289 292 302 303 NLSRDF
Technique: Sort-seq
Refers to: YFP reporter
Medium: E. coli
Setting: PhoQ-PhoP variant library
With: 10 µM Mg2+
Reference: high Mg2+ state
Direction: higher = stronger signaling
target	fold induction
PhoP, residues 12 14 15 18 19 QYCSL (Escherichia coli, UniProt P23836)	9.49
PhoP, residues 12 14 15 18 19 STHWV (Escherichia coli, UniProt P23836)	6.71
PhoP, residues 12 14 15 18 19 SHWTV (Escherichia coli, UniProt P23836)	10.6
